Assay results from different studies.
Parts stem from different laboratories: compare values within a part only.
Sequence of UniProt P15056 (whole entry, unmodified, looked up): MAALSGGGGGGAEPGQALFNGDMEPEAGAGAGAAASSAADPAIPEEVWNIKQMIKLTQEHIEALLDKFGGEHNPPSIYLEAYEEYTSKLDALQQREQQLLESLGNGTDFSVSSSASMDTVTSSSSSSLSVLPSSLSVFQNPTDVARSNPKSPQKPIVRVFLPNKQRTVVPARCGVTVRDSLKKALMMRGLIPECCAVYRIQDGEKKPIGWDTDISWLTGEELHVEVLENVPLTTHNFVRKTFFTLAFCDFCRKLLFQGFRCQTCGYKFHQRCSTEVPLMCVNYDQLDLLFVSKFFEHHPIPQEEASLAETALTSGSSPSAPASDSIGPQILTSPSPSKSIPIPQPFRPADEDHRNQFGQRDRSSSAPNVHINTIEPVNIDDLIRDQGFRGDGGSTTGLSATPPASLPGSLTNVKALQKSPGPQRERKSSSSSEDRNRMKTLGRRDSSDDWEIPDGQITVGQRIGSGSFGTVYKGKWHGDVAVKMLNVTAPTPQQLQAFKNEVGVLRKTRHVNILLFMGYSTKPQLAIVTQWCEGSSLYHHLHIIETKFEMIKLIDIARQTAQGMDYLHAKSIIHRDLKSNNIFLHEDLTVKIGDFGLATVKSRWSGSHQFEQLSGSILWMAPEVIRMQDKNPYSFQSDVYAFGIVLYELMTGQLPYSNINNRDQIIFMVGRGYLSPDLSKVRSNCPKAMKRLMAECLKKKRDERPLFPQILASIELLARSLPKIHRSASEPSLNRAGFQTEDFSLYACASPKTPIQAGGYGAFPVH
Sequence of UniProt Q9P286 (whole entry, looked up): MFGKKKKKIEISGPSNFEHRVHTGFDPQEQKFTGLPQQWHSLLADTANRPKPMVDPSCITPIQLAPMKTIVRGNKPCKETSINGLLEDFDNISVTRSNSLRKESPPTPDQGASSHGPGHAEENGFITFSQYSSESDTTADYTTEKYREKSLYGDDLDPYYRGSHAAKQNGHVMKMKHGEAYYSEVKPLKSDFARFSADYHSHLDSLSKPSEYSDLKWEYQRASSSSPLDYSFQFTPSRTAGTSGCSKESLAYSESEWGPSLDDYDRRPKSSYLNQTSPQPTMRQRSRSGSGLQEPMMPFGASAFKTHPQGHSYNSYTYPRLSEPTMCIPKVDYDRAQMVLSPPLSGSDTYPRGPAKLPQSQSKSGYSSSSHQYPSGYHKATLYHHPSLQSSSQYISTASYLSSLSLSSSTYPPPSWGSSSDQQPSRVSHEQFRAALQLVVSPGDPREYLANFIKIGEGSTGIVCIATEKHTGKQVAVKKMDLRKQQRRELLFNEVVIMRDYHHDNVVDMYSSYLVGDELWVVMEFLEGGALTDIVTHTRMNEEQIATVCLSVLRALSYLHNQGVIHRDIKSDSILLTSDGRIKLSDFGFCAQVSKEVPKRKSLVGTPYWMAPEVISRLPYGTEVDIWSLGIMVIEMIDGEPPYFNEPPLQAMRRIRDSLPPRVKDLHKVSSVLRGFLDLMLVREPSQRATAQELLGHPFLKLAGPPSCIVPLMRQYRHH
Sequence of UniProt Q8IVH8 (whole entry, looked up): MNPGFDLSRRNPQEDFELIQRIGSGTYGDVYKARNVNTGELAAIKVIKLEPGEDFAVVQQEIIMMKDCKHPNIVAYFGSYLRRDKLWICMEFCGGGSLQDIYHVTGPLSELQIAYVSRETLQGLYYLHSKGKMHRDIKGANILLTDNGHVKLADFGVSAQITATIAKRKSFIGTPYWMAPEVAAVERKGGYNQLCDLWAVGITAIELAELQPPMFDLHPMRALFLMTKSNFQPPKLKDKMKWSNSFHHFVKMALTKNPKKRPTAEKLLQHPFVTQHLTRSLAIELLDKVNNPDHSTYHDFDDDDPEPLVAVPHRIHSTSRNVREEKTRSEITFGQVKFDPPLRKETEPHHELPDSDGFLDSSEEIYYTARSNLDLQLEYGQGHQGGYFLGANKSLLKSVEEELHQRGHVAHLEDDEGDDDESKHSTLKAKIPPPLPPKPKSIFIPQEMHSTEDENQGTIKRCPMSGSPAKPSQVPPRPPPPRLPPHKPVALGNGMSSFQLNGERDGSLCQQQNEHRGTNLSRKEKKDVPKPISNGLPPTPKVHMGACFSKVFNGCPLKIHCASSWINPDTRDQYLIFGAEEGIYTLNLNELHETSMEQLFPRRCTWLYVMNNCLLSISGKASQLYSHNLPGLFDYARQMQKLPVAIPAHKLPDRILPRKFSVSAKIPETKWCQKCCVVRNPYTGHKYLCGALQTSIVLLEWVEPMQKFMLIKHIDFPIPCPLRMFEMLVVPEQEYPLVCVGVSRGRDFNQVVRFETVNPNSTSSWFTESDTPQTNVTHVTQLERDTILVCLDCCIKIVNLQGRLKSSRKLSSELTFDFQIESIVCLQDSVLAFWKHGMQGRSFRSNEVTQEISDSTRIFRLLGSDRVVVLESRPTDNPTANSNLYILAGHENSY
Sequence of UniProt Q9H4B4 (whole entry, looked up): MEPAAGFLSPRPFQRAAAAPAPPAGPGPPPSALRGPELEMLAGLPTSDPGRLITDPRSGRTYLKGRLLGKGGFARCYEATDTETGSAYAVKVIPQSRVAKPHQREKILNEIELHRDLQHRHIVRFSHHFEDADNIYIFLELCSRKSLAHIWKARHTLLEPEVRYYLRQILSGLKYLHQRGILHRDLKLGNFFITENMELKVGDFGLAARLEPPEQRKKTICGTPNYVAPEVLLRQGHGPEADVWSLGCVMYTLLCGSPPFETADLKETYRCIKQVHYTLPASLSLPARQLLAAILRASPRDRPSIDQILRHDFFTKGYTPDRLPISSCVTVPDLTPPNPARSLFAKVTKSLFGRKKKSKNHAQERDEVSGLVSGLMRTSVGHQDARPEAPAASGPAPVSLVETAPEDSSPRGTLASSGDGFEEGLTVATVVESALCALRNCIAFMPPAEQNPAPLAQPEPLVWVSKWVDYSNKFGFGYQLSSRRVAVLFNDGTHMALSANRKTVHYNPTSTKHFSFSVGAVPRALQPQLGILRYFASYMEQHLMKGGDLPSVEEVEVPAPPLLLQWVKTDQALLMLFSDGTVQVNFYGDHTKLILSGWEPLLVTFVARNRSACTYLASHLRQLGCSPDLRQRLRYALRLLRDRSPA
Sequence of UniProt P50613 (whole entry, looked up): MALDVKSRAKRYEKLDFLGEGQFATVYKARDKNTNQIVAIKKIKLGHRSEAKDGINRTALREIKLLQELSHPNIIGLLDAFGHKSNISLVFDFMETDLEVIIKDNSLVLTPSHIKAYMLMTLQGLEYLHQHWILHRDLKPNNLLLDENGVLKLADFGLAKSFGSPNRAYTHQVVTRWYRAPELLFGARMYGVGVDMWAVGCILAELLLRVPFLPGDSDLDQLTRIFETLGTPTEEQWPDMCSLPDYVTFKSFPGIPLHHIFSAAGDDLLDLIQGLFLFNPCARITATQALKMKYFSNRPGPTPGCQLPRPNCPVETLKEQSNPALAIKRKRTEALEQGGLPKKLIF
Sequence of UniProt Q00535 (whole entry, looked up): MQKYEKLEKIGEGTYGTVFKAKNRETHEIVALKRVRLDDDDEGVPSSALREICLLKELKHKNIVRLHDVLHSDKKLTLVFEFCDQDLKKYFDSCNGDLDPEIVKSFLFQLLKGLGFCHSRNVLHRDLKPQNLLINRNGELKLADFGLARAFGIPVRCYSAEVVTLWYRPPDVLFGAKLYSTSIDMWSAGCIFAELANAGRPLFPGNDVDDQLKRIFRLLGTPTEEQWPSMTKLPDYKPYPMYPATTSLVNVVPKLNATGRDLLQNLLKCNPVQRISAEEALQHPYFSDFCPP

Block 1 — read-out: enzyme activity; action: inhibitor; concentration: 10 µM; quantity: inhibition
Target: Calcium/calmodulin-dependent protein kinase type II subunit alpha (CAMK2A, Homo sapiens, UniProt Q9UQM7)
Sequence of UniProt Q9UQM7 (whole entry, looked up): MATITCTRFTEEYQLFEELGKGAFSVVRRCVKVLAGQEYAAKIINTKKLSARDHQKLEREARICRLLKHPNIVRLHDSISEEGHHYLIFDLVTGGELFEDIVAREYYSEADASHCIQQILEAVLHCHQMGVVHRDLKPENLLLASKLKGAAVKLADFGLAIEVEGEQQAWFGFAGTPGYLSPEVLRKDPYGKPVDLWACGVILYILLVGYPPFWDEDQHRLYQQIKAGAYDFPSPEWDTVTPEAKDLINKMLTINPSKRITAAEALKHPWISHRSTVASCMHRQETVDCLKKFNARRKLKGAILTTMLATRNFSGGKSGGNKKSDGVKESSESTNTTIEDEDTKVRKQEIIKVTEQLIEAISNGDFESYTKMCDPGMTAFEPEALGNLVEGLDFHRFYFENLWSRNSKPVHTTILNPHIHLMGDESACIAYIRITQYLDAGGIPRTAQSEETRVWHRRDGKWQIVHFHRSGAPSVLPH
COc1ccc(C[C@@H]2c3cc(Oc4cc(C[C@@H]5c6cc(O)c(OC)cc6CCN5C)ccc4O)c(OC)cc3CCN2C)cc1: -1%
C[C@H]1[C@H](C)CC[C@]2(C(=O)O)CC[C@]3(C)C(=CC[C@@H]4[C@@]5(C)C[C@@H](O)[C@H](O)C(C)(C)[C@@H]5CC[C@]43C)[C@H]12: -29%
CCN(CC)C(=O)[C@]1(c2ccccc2)C[C@@H]1CN: -2%
COC(=O)c1cccnc1: 31%
OC[C@H]1O[C@H](OC[C@H]2OC(O)(CO)[C@@H](O)[C@@H]2O)[C@H](O)[C@@H](O)[C@@H]1O (stereo partly drawn): -47%
C=C(C)[C@H](CC=C(C)C)Cc1c(O)cc(O)c2c1O[C@H](c1ccc(O)cc1O)CC2=O: 6%
C[C@@H](N)C(=O)O: 21%
O=C(c1ccc(OCCN2CCCCC2)cc1)c1c(-c2ccc(O)cc2)sc2cc(O)ccc12: 21%
COc1cc2c3c(cc4ccccc4c3c1OC)N(C)CC2: 25%
O=C(O)C(=O)CO: -2%
COc1c(/C=C/C(=O)c2ccc(O)c(CC=C(C)C)c2)ccc(O)c1O: -36%
CC(C)=CCC[C@@](C)(O)[C@H]1CC[C@]2(C)[C@@H]1[C@H](O)C[C@@H]1[C@@]3(C)C[C@@H](O)[C@H](O[C@@H]4O[C@H](CO)[C@@H](O)[C@H](O)[C@H]4O[C@@H]4O[C@H](CO)[C@@H](O)[C@H](O)[C@H]4O)C(C)(C)[C@@H]3CC[C@]12C: 47%
COC(=O)[C@@]1(C)CC[C@]2(C(=O)O)CC[C@]3(C)C(=CC[C@@H]4[C@@]5(C)C[C@H](O)[C@H](O[C@@H]6OC[C@@H](O[C@@H]7O[C@H](CO)[C@@H](O)[C@H](O)[C@H]7O)[C@H](O)[C@H]6O)[C@@](C)(CO)[C@@H]5CC[C@]43C)[C@@H]2C1: -37%
O=C(O)CNC(=O)/C=C/c1ccccc1: -14%
O=C1O[C@H](CO)[C@@H](O)[C@H]1O: -14%

Block 2 — species: mouse; medium: microsomes or S9; concentration: 2 µM; time: 0.5 h; quantity: remaining compound
O=C(N1CCCO1)N(c1ccccc1)c1ccccc1: 8.35%
CC(C)CN(CC(C)C)S(=O)(=O)c1ccc(NC(=O)C(C)C)cc1: < 1%
Cc1cc(C)[nH]/c(=N\N=C\C2=C(O)CC(C)CC2=O)n1 (stereo not drawn): 35.2%
Cc1ccc(C(=O)COC(=O)c2ccc(Cn3ccccc3=O)o2)s1: 3%
CC(=O)NCCc1ccc(S(=O)(=O)N(C)C)cc1: 66.1%
CC(C)n1nc(-c2ccc3ncccc3c2)c2cnc3cc(F)ccc3c21: 25.9%
CNC(=O)N1CCc2cc(S(=O)(=O)Nc3ccc(Cl)cc3)ccc21: < 1%
Cn1c(CN2CCN(C(=O)c3ccccc3)CC2)nc2cc(NC(=O)c3ccccc3[N+](=O)[O-])ccc21: 74.7%
CCOC(=O)N1CCN(Cc2nc(N)nc(Nc3ccc(F)cc3)n2)CC1: > 100%
COc1cc(=O)[nH]cc1C(=O)NC1CCCN(c2ccccc2)C1=O (stereo not drawn): 85.5%
CCOC(=O)C1(C(=O)OCC)Cc2ccccc2C(C)(c2ccccc2)C1 (stereo not drawn): 10.9%
COc1ccc(F)cc1-n1c(=O)[nH]c2c(c1=O)CCC2: 64.4%
c1ccc(-n2ncc3c(Nc4cccc5ccccc45)ncnc32)cc1: 0.229%
Cc1nn2c(N(C)C)cc(Cl)nc2c1Br: 0.118%
CN(CCN1CCCCC1)C(=O)c1c2c(nn1C)CCCC2: 0.0996%
Cc1n[nH]c(C)c1CNC(=O)C1CCN(C(=O)c2ncn3c2COC(c2ccc(F)cc2)C3)CC1 (stereo not drawn): 68%
Cc1ccc(N2CCCS2(=O)=O)cc1NS(=O)(=O)CC12CCC(CC1=O)C2(C)C (stereo not drawn): 3.19%

Block 3 — read-out: cell-free assay; technique: competition with immobilised ligand; concentration: 1 µM; quantity: remaining binding
SMILES: CC(=O)C1=C(C)N(c2cccc(C(F)(F)F)c2)C(=O)N[C@@H]1c1ccc(C#N)nc1
Glycogen synthase kinase-3 alpha (GSK3A, Homo sapiens, UniProt P49840): 95%
Ephrin type-B receptor 3 (EPHB3, Homo sapiens, UniProt P54753): 100%
Mitogen-activated protein kinase kinase kinase 7 (MAP3K7, Homo sapiens, UniProt O43318): 100%
Serine/threonine-protein kinase B-raf (BRAF, Homo sapiens, UniProt P15056): 78.5%
Mitogen-activated protein kinase kinase kinase kinase 3 (MAP4K3, Homo sapiens, UniProt Q8IVH8): 83.5%
LIM domain kinase 1 (LIMK1, Homo sapiens, UniProt P53667): 70.2%
Serine/threonine-protein kinase PAK 5 (PAK5, Homo sapiens, UniProt Q9P286): 96.2%
Protein-tyrosine kinase 2-beta (PTK2B, Homo sapiens, UniProt Q14289): 100%
Cyclin-dependent kinase 11B (CDK11B, Homo sapiens, UniProt P21127): 100%
Serine/threonine-protein kinase PLK3 (PLK3, Homo sapiens, UniProt Q9H4B4): 84.2%
Cyclin-dependent kinase 7 (CDK7, Homo sapiens, UniProt P50613): 90.6%
Cyclin-dependent kinase 5 (CDK5, Homo sapiens, UniProt Q00535): 100%
Receptor-type tyrosine-protein kinase FLT3 (FLT3, Homo sapiens, UniProt P36888, R834Q): 83.6%
Ephrin type-A receptor 2 (EPHA2, Homo sapiens, UniProt P29317): 100%
Serine/threonine-protein kinase B-raf (BRAF, Homo sapiens, UniProt P15056, V600E): 100%
Phosphatidylinositol 4,5-bisphosphate 3-kinase catalytic subunit alpha isoform (PIK3CA, Homo sapiens, UniProt P42336, E545K): 77.5%
Calcium/calmodulin-dependent protein kinase type 1B (PNCK, Homo sapiens, UniProt Q6P2M8): 92.4%
ALK tyrosine kinase receptor (ALK, Homo sapiens, UniProt Q9UM73): 100%
Proto-oncogene tyrosine-protein kinase receptor Ret (RET, Homo sapiens, UniProt P07949, V804M): 100%

Block 4 — read-out: enzyme activity; action: inhibitor; concentration: 0.5 µM; baseline: control; quantity: remaining activity
Target: Mitogen-activated protein kinase kinase kinase kinase 2 (MAP4K2, Homo sapiens, UniProt Q12851)
Sequence of UniProt Q12851 (whole entry, looked up): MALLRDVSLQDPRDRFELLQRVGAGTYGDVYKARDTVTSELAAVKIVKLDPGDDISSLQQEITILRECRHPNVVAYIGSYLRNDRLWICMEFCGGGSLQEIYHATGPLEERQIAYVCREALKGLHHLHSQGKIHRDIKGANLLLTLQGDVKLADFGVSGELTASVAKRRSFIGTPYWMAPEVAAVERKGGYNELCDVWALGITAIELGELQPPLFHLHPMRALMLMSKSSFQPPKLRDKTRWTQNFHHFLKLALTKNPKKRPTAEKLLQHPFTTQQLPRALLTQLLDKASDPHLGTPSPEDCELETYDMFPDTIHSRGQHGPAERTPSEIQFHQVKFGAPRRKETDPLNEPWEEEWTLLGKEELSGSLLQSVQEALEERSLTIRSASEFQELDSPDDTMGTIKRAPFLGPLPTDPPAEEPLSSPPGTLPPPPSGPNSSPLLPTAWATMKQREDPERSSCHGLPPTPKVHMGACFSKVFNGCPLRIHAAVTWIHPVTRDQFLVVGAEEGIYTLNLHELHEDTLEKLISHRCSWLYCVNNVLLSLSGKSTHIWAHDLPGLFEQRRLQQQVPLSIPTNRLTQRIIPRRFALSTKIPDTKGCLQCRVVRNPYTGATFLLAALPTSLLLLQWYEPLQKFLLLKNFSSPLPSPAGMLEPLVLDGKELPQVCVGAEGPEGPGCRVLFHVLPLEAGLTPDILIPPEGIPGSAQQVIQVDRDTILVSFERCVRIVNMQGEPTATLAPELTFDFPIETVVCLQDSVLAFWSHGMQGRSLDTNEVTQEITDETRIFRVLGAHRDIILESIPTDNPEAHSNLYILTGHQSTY
c1ccc(-c2cnc(Nc3ccc(OCCN4CCCC4)cc3)s2)cc1: 113%
Nc1cccc(-c2cc3c(Oc4cccc(O)c4)ncnc3[nH]2)c1: 55.5%
Cc1cn(-c2cc(NC(=O)c3ccc(C)c(Nc4nccc(-c5cccnc5)n4)c3)cc(C(F)(F)F)c2)cn1: 103%
O=C(Nc1cccc(Nc2nccc(Nc3cccc(C(F)(F)F)c3)n2)c1)C1CC1: 112%
N#Cc1c(NC(=O)c2cccc3ccccc23)sc2c1CCCC2: 86.1%
Ic1cccc(CSc2nnc(-c3ccncc3)o2)c1: 112%
O=C1C(Cl)=C(N2C(=O)CCC2=O)C(=O)c2ccccc21: 89.6%
Cn1nc2c3c(cccc31)C(=O)c1ccccc1-2: 75.4%
COc1cc2ncnc(Nc3cccc(Cl)c3)c2cc1OC: 98.1%
O=C(NC(NC(=S)Nc1ccc(F)c([N+](=O)[O-])c1)C(Cl)(Cl)Cl)C(c1ccccc1)c1ccccc1 (stereo not drawn): 111%
C[C@@H]1CCN(C(=O)CC#N)C[C@@H]1N(C)c1ncnc2[nH]ccc12: 102%
O=C1c2ccccc2-c2n[nH]c3cccc1c23: 42.8%
COc1cc2ncnc(Nc3ccc(O)c(Br)c3)c2cc1OC: 101%
CCN(CC)CCNC(=O)c1c(C)[nH]c(/C=C2\C(=O)Nc3ccc(Cl)cc32)c1C: 8.07%
CCN(CC)C(=O)c1ccc(Nc2nc(OCC3CCCCC3)c3[nH]cnc3n2)cc1: 59.7%
COc1cc2c(cc1OC)-c1[nH]nc(Nc3cccc(F)c3)c1C2: 103%
c1ccc(-c2[nH]ncc2-c2ccnc3ccccc23)nc1: 103%
CN([C@@H](Cc1ccc(OS(=O)(=O)c2cccc3cnccc23)cc1)C(=O)N1CCN(c2ccccc2)CC1)S(=O)(=O)c1cccc2cnccc12: 89.5%
CCN(CC)CCNC(=O)c1c(C)[nH]c(/C=C2\C(=O)Nc3ccc(F)cc32)c1C: 34.4%
O=c1cc(-c2cccc3c2Sc2ccccc2S3)oc(N2CCOCC2)c1: 109%
Cc1cc2ncc(-c3ccccc3)nc2cc1C: 113%
N#C/C(=C\c1ccc(O)c(O)c1)C(=O)NCc1ccccc1: 103%
CCOc1nc(NC(=O)Cc2cc(OC)ccc2OC)cc(N)c1C#N: 83.6%
CN(C)C[C@H]1CCn2c(c(C3=C(c4cn(C)c5ccccc45)C(=O)NC3=O)c3ccccc32)C1: 99%

A few entries again (block 4):
Cc1cn(-c2cc(NC(=O)c3ccc(C)c(Nc4nccc(-c5cccnc5)n4)c3)cc(C(F)(F)F)c2)cn1: 103%
CCN(CC)C(=O)c1ccc(Nc2nc(OCC3CCCCC3)c3[nH]cnc3n2)cc1: 59.7%
O=C(NC(NC(=S)Nc1ccc(F)c([N+](=O)[O-])c1)C(Cl)(Cl)Cl)C(c1ccccc1)c1ccccc1 (stereo not drawn): 111%
Ic1cccc(CSc2nnc(-c3ccncc3)o2)c1: 112%
Cc1cc2ncc(-c3ccccc3)nc2cc1C: 113%
CN(C)C[C@H]1CCn2c(c(C3=C(c4cn(C)c5ccccc45)C(=O)NC3=O)c3ccccc32)C1: 99%
